# Experimental data gathered from unrelated publications.
# A part holds a random share of what one study measured. Substitutions count along the parent as printed.

# Block 1
# Target: RING finger protein unkempt homolog, zinc fingers 1-6, SBP tag (UNK, Homo sapiens, UniProt Q9C0B0, residues 30-357)
# Sequence of UniProt Q9C0B0 (30-357, looked up): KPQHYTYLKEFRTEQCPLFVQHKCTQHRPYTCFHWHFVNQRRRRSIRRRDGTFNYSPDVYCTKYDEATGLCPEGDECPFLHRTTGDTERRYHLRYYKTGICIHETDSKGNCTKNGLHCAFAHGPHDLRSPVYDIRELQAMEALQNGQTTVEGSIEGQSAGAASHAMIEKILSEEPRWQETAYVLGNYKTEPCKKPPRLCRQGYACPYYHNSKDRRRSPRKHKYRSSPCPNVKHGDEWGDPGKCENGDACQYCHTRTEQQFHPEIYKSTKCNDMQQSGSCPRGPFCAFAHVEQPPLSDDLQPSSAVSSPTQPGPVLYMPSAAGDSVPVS
# Method: RNA Bind-n-Seq
# Form: RNA
# Sample: in vitro
# Tested at: 100 nM
# Setting: RNA with constant flanks, vertebrate orthologous sites, ends assumed
# Baseline: input RNA pool
# Direction: higher = stronger binding
Strand,bound/input enrichment [ratio]
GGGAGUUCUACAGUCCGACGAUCCUCUCUUAGCGAUAGUAUUCCAUCCGUAGCAGAUUCUCACUCGAGUCAUUUUUCUGAGUUCAGUUGCUCAGAUAUGGAAAGUAUGAAAACUUCCUGUAGCCACGGUUCCAGCGACUAUCACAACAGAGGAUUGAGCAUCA,1.79
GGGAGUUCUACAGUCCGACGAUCGUUGCGAUCCCUUUAAUAUGCACAGAAAACUAUCAAAGAAAAACUUGCGUGCAAUUGACCUGCAUGACGCAACUUUUCUAACUGCCAAGUUUGGAAGACAGUUUGUACCUGGUUGGAAGCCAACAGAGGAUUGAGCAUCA,0.441
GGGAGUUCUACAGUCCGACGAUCUAUUGUAUGUAGAGAAAAUUUUCCAUUGACUUCAUUAUGAAAUCCCCCUAGCAGUUAAUUUAGCAUCUUAAUUUUUCUAAUUAAAGCGCAUUGUAUUAGUCAUUUUUAGCUCAUAAUUAACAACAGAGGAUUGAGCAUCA,2.15
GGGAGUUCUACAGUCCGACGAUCCAGGGAAAAGAGCUCACAAACUCAAAGGAAACUAUUCAAGAGUUUCUAAUAGUCAAAAGCUAGGAAAGAUUAGGACAAUUGUACAAAUGAGCAAUUAAAAAGAAAACAAAAGAAAAAGGUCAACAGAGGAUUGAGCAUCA,0.725
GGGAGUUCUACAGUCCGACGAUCUUAAAGUCAUUUUUUUCAUGUUUCCUGUAAAUAAUGGAUAAUCAUUUUUAUUUUAUUUUUAAGUGCUGUUUUAACAAUGUGGAUAGACCAUAAAUGUACUUGCUGAAUUCAUUCAUUUUUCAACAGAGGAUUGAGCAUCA,0.286
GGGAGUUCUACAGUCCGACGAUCGAAGAUGGUGGUUGUACAUUAUUCAUUUAGAAAAUAUAAAAAUUCAUUUUGUUUUGAAGCUAGUUAUUAAACUGGAAUAGCAGUUAUACCCCCUGAGAAUGGGGCCCUUCCCUUGACAUUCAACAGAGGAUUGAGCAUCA,4.02
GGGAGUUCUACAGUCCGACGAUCCUCUAUGGGCCUCGCAGAGUUGAAAUAAUGGAAGAGGAAAGUGAAUAGUGAUCUUCAUUUUAGUAUUUAUGCUUAGAUGUGAAAAUAAAUGUUAUUUGUUGAUUAUUUCUAUAAUCCAGACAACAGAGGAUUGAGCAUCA,0.685
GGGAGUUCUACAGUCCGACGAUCCAGUCAUGGAGAAAAAUAUAUUAAAAUAAUUUCAUGGCACUGAUGUUAAUUCUAGUCUAUUAGUUUUAUAAAAGUUAGGGUUCUUAUUUAGGAACAACAGGAAGUGACUGUUAAGGAGAACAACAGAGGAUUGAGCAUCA,2.71
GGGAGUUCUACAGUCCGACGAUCACAAGAUUUGGACCUUGGAGCAGAACCAGGAGUUAGAAGUAAAAAAAGCUGGUAAAAUUAUAGCCAUAUGCUGCUGCAUAACAGCAGUACUACCACUAGCAACUGUACCUGAAGUAUAAACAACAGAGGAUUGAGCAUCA,0.423
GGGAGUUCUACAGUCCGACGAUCAUUGAAAACUGAACCAUGUCUACCUAGAAAGUAACACUCUACAAAUAUCACUAAAUAAUUUAGCUAUAAUCUUUUUAAACAUUACAUUAUAUGUCAAAUAGUCAAAGUUAAAAGUAAGUACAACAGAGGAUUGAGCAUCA,1.17
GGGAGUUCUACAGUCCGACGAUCACAUCAUGGGUUACUCUCAUUUCUGUAGCAGAUAGAACAUUUUGCAAAACAUGUAUACACCUGGCUAAGCUGAAUAUAUUUUUAUUAGCCUGUAAAUAAAUAUACUCUUCUGCAUUGCACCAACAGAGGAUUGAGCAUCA,0.375

# Block 2
# Target: ABI1, truncated, D143A, DHFR fusion (Arabidopsis thaliana)
# Method: DHFR PCA, deep sequencing
# Sample: yeast
# Setting: methotrexate growth selection, single substitutions
# Together with: (+)-ABA 4.8 µM
# Baseline: wild-type fitted maximum
# Direction: higher = stronger binding
# Starting sequence: PYL1, truncated, DHFR fusion (Arabidopsis thaliana); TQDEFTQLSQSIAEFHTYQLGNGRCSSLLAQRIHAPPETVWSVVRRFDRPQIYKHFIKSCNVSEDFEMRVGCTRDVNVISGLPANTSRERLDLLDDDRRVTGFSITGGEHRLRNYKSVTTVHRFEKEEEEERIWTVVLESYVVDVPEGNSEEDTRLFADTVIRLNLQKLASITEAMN; partner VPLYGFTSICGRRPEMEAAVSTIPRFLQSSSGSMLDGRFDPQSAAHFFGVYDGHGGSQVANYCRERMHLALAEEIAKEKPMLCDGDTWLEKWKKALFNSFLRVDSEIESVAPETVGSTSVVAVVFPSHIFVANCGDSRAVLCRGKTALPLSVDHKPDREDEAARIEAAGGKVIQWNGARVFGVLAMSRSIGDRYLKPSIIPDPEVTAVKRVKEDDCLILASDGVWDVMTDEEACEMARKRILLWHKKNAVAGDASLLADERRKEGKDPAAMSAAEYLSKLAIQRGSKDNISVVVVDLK
Substitution,relative binding score
V62C,41.2%
F124V,77.8%
T1E,74.3%
L8K,19.7%
L94R,-5.79%
V143C,73.9%
W41S,0.631%
T1C,73.5%
R98P,1.23%
L164A,66.2%
G108R,-4.65%
E38I,-26.6%
E38Q,46.4%
G148D,44.1%
L169Y,17.6%

# Block 3
# Target: CCNB1, cyclin fold, Cln2 fusion (human)
# Method: yeast growth competition, sequencing
# Sample: yeast
# Setting: weak parent motif
# Baseline: not given
# Direction: higher = stronger binding
# Starting sequence: SAMHD1 docking peptide (human); ASKSRVQLFKDDP
Substitution,normalised enrichment score
ASKSRVQLLKDDP [F9L],0.341
ASKSRVQTFKDDP [L8T],0.212
ASKSRFQLFKDDP [V6F],0.259
ASKSNVQLFKDDP [R5N],-0.239
ASKSDVQLFKDDP [R5D],-0.311
ASKSRVQLFKDYP [D12Y],0.307
ASKSRVQWFKDDP [L8W],0.163
ASKSRVQLFKVDP [D11V],-0.0101
ASHSRVQLFKDDP [K3H],0.335
ASKSRQQLFKDDP [V6Q],-0.345
ASKSRVQLFKYDP [D11Y],0.288
ANKSRVQLFKDDP [S2N],0.0182
ASTSRVQLFKDDP [K3T],0.0246
ASKQRVQLFKDDP [S4Q],0.212
ASKARVQLFKDDP [S4A],0.67
ASKSRVCLFKDDP [Q7C],0.344
ASESRVQLFKDDP [K3E],0.149

# Block 4
# Target: PABPC1L2, full length, GST fusion (mouse, UniProt A0ABA7IW68)
# Method: RNAcompete
# Form: RNA
# Sample: in vitro
# Tested at: 20 nM
# Setting: 7-mer, probes averaged, single round
# Baseline: mean of 7-mers
# Direction: higher = stronger binding
# Residues (chain): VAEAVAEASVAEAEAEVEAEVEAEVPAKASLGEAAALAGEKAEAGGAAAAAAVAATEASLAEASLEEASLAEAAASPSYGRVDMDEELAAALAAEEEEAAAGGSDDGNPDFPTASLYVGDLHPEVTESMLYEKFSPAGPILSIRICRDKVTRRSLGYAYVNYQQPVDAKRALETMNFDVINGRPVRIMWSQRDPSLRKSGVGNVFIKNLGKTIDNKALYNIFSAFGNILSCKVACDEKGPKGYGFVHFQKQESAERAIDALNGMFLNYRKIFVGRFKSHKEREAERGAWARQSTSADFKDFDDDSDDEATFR
Strand,7-mer Z-score
UAAUUUA,0.119
GGCGCCC,-0.32
GCUUUCU,-0.356
CAGGGGU,0.122
CCCACGU,-0.262
CGAGCAA,0.0569
UUCAAAG,-0.217
UCCAUCU,-0.338
CCCGCGA,-0.139
UAACUCG,-0.315
AGCAGAU,0.0569
GUUAUAC,-0.175
AUACCGC,-0.315
CAAACGC,0.16
UGCCGGG,-0.0772
ACAGCGG,0.149
CACCCGU,-0.226
CGGUGGA,0.224
CCGAUCU,-0.206
CGCGCUA,-0.291

# A few entries again (block 3):
Substitution,normalised enrichment score
ASKSRQQLFKDDP [V6Q],-0.345
ASKSRVQLFKDYP [D12Y],0.307
ANKSRVQLFKDDP [S2N],0.0182
ASKSRVCLFKDDP [Q7C],0.344
ASKSRVQWFKDDP [L8W],0.163
ASKSRVQLFKYDP [D11Y],0.288
ASHSRVQLFKDDP [K3H],0.335
ASESRVQLFKDDP [K3E],0.149
ASKSRVQTFKDDP [L8T],0.212
